Measured values from different studies.
Protocols differ between the studies behind these lines. Numbers after ± are the reported error.

Cc1c(CN(C)C(=O)/C=C/c2cnc3c(c2)CC(NC(=O)OC(C)(C)C)C(=O)N3)oc2ccccc12 (stereo not drawn)
MIC (Klebsiella pneumoniae; broth microdilution; AR-0113): > 32 µg/mL

CC1(C)S[C@@H]2[C@H](NC(=O)[C@H](N)c3ccccc3)C(=O)N2[C@H]1C(=O)O
MIC (Pseudomonas aeruginosa; clinical isolate RKI-No_502/15): > 16 µg/mL

Cc1ccc(CCC(=O)Nc2nnc(S(N)(=O)=O)s2)cc1
MIC (Enterococcus raffinosus; ATCC 49464): 3.06 µM

CCCCCCCCCC(=O)N[C@@H](Cc1c[nH]c2ccccc12)C(=O)N[C@H](CC(N)=O)C(=O)N[C@@H](CC(=O)O)C(=O)N[C@@H]1C(=O)NCC(=O)N[C@@H](CCCN)C(=O)N[C@@H](CC(=O)O)C(=O)N[C@H](C)C(=O)N[C@@H](CC(=O)O)C(=O)NCC(=O)N[C@H](CO)C(=O)N[C@@H]([C@H](C)CC(=O)O)C(=O)N[C@@H](CC(=O)c2ccccc2N)C(=O)O[C@@H]1C
MIC (Staphylococcus aureus; SH1000; with: cardiolipin, molar ratio 2): 1 µg/mL

CNC(C)C1CCC(N)C(OC2C(N)CC(N)C(OC3OCC(C)(O)C(NC)C3O)C2O)O1 (stereo not drawn)
MIC (Pseudomonas aeruginosa; clinical isolate RKI-No_482/15): > 8 µg/mL

CC(=O)NC[C@H]1CN(c2ccc(N3CCOCC3)c(F)c2)C(=O)O1
MIC (Lactobacillus; ATCC 53103): 5.93 µM

CCCCCCCCCC(=O)N[C@@H](Cc1c[nH]c2ccccc12)C(=O)N[C@H](CC(N)=O)C(=O)N[C@@H](CC(=O)O)C(=O)N[C@@H]1C(=O)NCC(=O)N[C@@H](CCCN)C(=O)N[C@@H](CC(=O)O)C(=O)N[C@H](C)C(=O)N[C@@H](CC(=O)O)C(=O)NCC(=O)N[C@H](CO)C(=O)N[C@@H]([C@H](C)CC(=O)O)C(=O)N[C@@H](CC(=O)c2ccccc2N)C(=O)O[C@@H]1C
MIC (Staphylococcus aureus; broth microdilution; MRSA USA300, Mueller-Hinton broth, Mg2+ 10 mg/L; 16 h, 37 °C, with: Ca2+ 1.0 mM): 0.5 µg/mL

C[C@@H](O)[C@H]1C(=O)N2C(C(=O)O)=C(S[C@@H]3CN[C@H](C(=O)N(C)C)C3)[C@H](C)[C@H]12
MIC (Acinetobacter pittii; broth microdilution; clinical isolate RKI 588/16): ≤ 0.5 µg/mL

CC(C)c1ccc(/C=C2\N=C(SCC(=O)O)N(c3ccccc3)C2=O)cc1
MIC (Fusarium solani; serial dilution): 12 ± 0.6 µg/mL

A few entries again:
Cc1ccc(CCC(=O)Nc2nnc(S(N)(=O)=O)s2)cc1
MIC (Enterococcus raffinosus; ATCC 49464): 3.06 µM
